{"data": "Measurements from different studies", "note": "A part holds a random share of what one study measured. Positions count from the first letter of the parent shown."}
{"data": "Study 1", "target": "Histone acetyltransferase KAT6A, both winged helices, GST fusion (KAT6A, Homo sapiens, UniProt Q92794, residues 1-181)", "technique": "protein binding microarray", "molecule type": "double-stranded DNA, one strand shown", "matrix": "in vitro", "tested at": "not given", "setting": "8-mer, flanks averaged, mean of 2 arrays, mostly near background", "baseline": "not given", "reading": "higher = stronger binding", "Target sequence (chain)": "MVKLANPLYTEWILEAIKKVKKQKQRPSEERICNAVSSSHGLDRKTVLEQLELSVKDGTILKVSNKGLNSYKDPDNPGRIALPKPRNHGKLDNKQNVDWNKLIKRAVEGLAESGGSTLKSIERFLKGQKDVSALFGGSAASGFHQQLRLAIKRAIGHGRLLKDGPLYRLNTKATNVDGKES"}
{"Strand": "ATATCTAA", "E-score": -0.138}
{"Strand": "GAGGAGAC", "E-score": 0.0136}
{"Strand": "AGAACTGC", "E-score": -0.0664}
{"Strand": "CTCCGAGC", "E-score": 0.072}
{"Strand": "ATGAGTAA", "E-score": -0.0876}
{"Strand": "CCAACAGC", "E-score": -0.0892}
{"Strand": "AACTCCAG", "E-score": -0.0428}
{"Strand": "ATGTCCGA", "E-score": 0.0903}
{"Strand": "CATCTACA", "E-score": -0.109}
{"Strand": "ATGAAGGC", "E-score": 0.0332}
{"Strand": "ACCTTTTA", "E-score": -0.0863}
{"Strand": "CTGTCAAG", "E-score": -0.157}
{"Strand": "AAGGGGGT", "E-score": -0.271}
{"Strand": "CTCTAGGC", "E-score": 0.0307}
{"Strand": "ACCCTCAG", "E-score": -0.253}
{"Strand": "AGATGACG", "E-score": -0.0335}
{"Strand": "AATCGCAA", "E-score": 0.133}
{"Strand": "AGCATTAC", "E-score": -0.186}
{"Strand": "ACACTTAA", "E-score": -0.093}
{"Strand": "CAGAAACC", "E-score": -0.0262}
{"Strand": "GAGTTGGA", "E-score": -0.196}
{"Strand": "ATTGCGTG", "E-score": 0.125}
{"Strand": "CTATGCTA", "E-score": -0.00136}
{"Strand": "TGGGCCCA", "E-score": -0.132}
{"Strand": "GGGGGCAC", "E-score": -0.163}
{"data": "Study 2", "target": "ABI1, truncated, D143A, DHFR fusion (Arabidopsis thaliana)", "technique": "DHFR PCA, deep sequencing", "matrix": "yeast", "setting": "methotrexate growth selection, single substitutions", "added": "(+)-ABA 0.0091 µM", "baseline": "wild-type fitted maximum", "reading": "higher = stronger binding", "starting sequence": "PYL1, truncated, DHFR fusion (Arabidopsis thaliana); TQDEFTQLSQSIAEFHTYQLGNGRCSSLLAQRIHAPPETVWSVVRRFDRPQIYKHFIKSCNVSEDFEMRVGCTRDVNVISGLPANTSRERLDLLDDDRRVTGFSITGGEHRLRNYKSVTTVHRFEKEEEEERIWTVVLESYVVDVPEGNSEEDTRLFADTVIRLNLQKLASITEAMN"}
{"Substitution": "V44P", "relative binding score [%]": -4.32}
{"Substitution": "A30G", "relative binding score [%]": 6.78}
{"Substitution": "I33L", "relative binding score [%]": -1.38}
{"Substitution": "H110G", "relative binding score [%]": 33}
{"Substitution": "Q19A", "relative binding score [%]": 30.9}
{"Substitution": "T6D", "relative binding score [%]": 33.7}
{"Substitution": "N22L", "relative binding score [%]": 18.4}
{"Substitution": "H34Q", "relative binding score [%]": 42.9}
{"Substitution": "L169G", "relative binding score [%]": -1.88}
{"Substitution": "T101S", "relative binding score [%]": -2.27}
{"Substitution": "G23P", "relative binding score [%]": 1.24}
{"Substitution": "I133H", "relative binding score [%]": 31.9}
{"Substitution": "F157D", "relative binding score [%]": -0.567}
{"Substitution": "S11V", "relative binding score [%]": 34.4}
{"data": "Study 3", "target": "RNA binding protein fox-1 homolog 2, RRM domain, GST-SBP tag (RBFOX2, Homo sapiens, UniProt O43251-10, residues 100-194)", "technique": "RNA Bind-n-Seq", "molecule type": "RNA", "matrix": "in vitro", "tested at": "365 nM", "setting": "natural RNA segment, single round, ends assumed", "baseline": "no-protein control", "reading": "higher = stronger binding", "shared flanks, not repeated": "GGGAGUUCUACAGUCCGACGAUC … UGGAAUUCUCGGGUGCCAA", "Residues (chain)": "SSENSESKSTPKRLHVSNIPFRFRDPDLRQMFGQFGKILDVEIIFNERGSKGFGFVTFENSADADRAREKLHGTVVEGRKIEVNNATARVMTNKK"}
{"Strand": "AGCGAUCAUUUUAUUUUAUUUUAUUACUUUUGUUUUUAAUUUUAACCAUAGUGCACAUAUUCCAGGAAAGUGUCUUUAAAAACAAAAACAAACCCUGAAAUGUAUAUUUG", "RBNS enrichment (R)": 0.936}
{"Strand": "UCUGUUAACUGAAUGCUUUGAUCAGCAUUGAGGUGAUGCUCACCUCCGAGGACCUCAGAACUGGUGCAGCUUCUCUCUCCCUCCCUCCCACAGACUGAACCUUUCGCCAG", "RBNS enrichment (R)": 0.501}
{"Strand": "GGUAUGAAGUGUGCACACGCAGCCCAACAACGGGCAGUGGUCUCUGUGCUCCUAGGCAUCCAGCACAGGUUCUGGCAGGGCACCCCUGCUGGGGUUGGGGGCUGGUCUGU", "RBNS enrichment (R)": 0.457}
{"Strand": "CUUGCUUUUGGAGGUUGUUUUGGGGAAAAAACAGUUUAUAUAAACUGAUUUUUGUAGUUUUGGUAUUUAAAGCAAAAACAAACAAAAAACAAACCCCUUUUUGGUACCUG", "RBNS enrichment (R)": 0.253}
{"Strand": "AAAAAGUUGUCUUGUUGUAUUUUUGAUGCUGGCACAAGGUUCUUGUCCACUUUGGUUUUUCUUAUCUCUGUAUGUAAGAAAUUCUGUUUGUUGUUUACUAUGGAAUUAGU", "RBNS enrichment (R)": 18.7}
{"Strand": "GCUCAUCUUGCAAAGCGCUAUUUCAGGCACAUCAUUGGAAUACAGGAAGUAGCCCUGCACCUGCCAGUGAGCUCGCCAUUCACUGAUUGGAAGAGUGACCUGGCAUCUUG", "RBNS enrichment (R)": 0.256}
{"Strand": "AUGUUGCCGAAAUAAGCAACUCUUAGGUUUGCCUGACUGCCUUAUGCUGGUAAAGAAAAGGGAUUCAACUGUCUCUUUUCCAAAUAAAAAAAAAGUCAAAAUUUCAAGUG", "RBNS enrichment (R)": 0.305}
{"Strand": "ACUUGUUUUCUUUUGGCUUUUGUUGUUUUUGUUUUGUUCUGUUUGUUUUGUUUUGUAUUUCUUUGUUAUUUUAUUGGGAAGGUAAGCGGAAUGUGCUCAUAGACCAUCAG", "RBNS enrichment (R)": 3.71}
{"data": "Study 4", "target": "Sal-like protein 4, full length isoform A (SALL4, Homo sapiens, UniProt Q9UJQ4, residues 1-1053)", "technique": "universal PBM", "molecule type": "double-stranded DNA, one strand shown", "matrix": "in vitro", "tested at": "600 nM", "setting": "8-mer, flanks averaged, mean of replicates", "reading": "higher = stronger binding", "sequence of UniProt Q9UJQ4 (whole entry, looked up)": "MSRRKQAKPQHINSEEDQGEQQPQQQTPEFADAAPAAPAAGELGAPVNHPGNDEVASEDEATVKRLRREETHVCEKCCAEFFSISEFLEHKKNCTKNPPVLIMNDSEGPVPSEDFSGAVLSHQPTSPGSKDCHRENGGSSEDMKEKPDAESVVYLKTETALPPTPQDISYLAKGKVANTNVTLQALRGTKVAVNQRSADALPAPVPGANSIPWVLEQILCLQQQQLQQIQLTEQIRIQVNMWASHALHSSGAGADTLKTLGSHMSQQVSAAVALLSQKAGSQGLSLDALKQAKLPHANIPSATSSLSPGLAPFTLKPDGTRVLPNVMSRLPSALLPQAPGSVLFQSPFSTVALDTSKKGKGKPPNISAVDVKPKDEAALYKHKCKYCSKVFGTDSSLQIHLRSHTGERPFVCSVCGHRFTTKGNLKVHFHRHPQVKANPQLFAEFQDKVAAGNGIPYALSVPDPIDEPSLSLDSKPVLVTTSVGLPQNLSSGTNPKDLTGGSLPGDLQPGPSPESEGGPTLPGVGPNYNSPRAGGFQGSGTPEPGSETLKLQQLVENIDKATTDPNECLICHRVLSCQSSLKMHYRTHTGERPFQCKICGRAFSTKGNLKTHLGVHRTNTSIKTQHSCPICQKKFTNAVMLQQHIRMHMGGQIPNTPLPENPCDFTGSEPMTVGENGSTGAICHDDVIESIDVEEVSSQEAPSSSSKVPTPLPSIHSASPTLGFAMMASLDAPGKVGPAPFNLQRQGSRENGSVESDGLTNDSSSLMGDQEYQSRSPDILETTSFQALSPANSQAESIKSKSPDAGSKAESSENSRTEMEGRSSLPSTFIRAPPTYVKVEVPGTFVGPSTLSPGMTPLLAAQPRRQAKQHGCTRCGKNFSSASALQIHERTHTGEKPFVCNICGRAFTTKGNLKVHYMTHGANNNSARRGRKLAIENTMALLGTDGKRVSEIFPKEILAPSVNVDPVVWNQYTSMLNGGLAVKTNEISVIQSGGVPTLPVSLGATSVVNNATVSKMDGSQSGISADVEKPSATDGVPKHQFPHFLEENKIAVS"}
{"Strand": "ATCTCGCC", "E-score": -0.298}
{"Strand": "AATATCCA", "E-score": 0.301}
{"Strand": "CGATCCTA", "E-score": -0.135}
{"Strand": "TGCTACCA", "E-score": -0.0728}
{"Strand": "ATGGCTCA", "E-score": -0.0664}
{"Strand": "ACTGTGAG", "E-score": -0.0158}
{"Strand": "TTCATCAA", "E-score": 0.248}
{"Strand": "AACAATCG", "E-score": 0.0529}
{"Strand": "AAACTGTG", "E-score": 0.00776}
{"Strand": "ACACGGGG", "E-score": -0.327}
{"Strand": "AATTCAAC", "E-score": 0.14}
{"Strand": "ACTGCATC", "E-score": 0.032}
{"Strand": "CATAAAGC", "E-score": 0.122}
{"Strand": "CGTCTCAG", "E-score": -0.146}
{"Strand": "TAAACGTA", "E-score": 0.273}
{"Strand": "GCGAGTCC", "E-score": -0.201}
{"Strand": "CCATGTGC", "E-score": -0.141}
{"Strand": "AGGCGCTG", "E-score": -0.162}
{"Strand": "AGAAACTA", "E-score": -0.0273}
{"Strand": "ATCCGGAG", "E-score": -0.0667}
{"Strand": "GCCGACAC", "E-score": -0.295}
{"data": "Study 5", "target": "Prothrombin, mature alpha-thrombin (F2, Homo sapiens, UniProt P00734)", "technique": "aptamer microarray, sandwich", "molecule type": "DNA with 2'F-ANA", "matrix": "in vitro", "tested at": "200 nM", "setting": "whole 15-mer aptamer, many near background", "added": "Cy3 exosite-II aptamer, 400 nM", "reading": "higher = stronger binding", "strand": "GGTTGGTGTGGTTGG"}
{"Modification": "2'F-ANA at 1 2 3 4 5 6 9 11 12 13 15", "mean fluorescence intensity [a.u.]": 60.9}
{"Modification": "2'F-ANA at 4 6 9 14", "mean fluorescence intensity [a.u.]": 75.4}
{"Modification": "2'F-ANA at 1 2 3 6 8 11 12 13 14 15", "mean fluorescence intensity [a.u.]": 86.5}
{"Modification": "2'F-ANA at 4 6 8 9 14 15", "mean fluorescence intensity [a.u.]": 95.4}
{"Modification": "2'F-ANA at 1 3 4 7 8 9 11 12 13 15", "mean fluorescence intensity [a.u.]": 263}
{"Modification": "2'F-ANA at 2 7 9 10 11 14 15", "mean fluorescence intensity [a.u.]": 83.3}
{"Modification": "2'F-ANA at 2 3 6 9 10 12 13 14", "mean fluorescence intensity [a.u.]": 247}
{"Modification": "2'F-ANA at 1 6 11 12 15", "mean fluorescence intensity [a.u.]": 276}
{"Modification": "2'F-ANA at 1 4 5 6 8 9 10 11 12 15", "mean fluorescence intensity [a.u.]": 82.4}
{"Modification": "2'F-ANA at 2 4 5 6 7 9 10 11 13 14", "mean fluorescence intensity [a.u.]": 52.8}
{"Modification": "2'F-ANA at 1 3 8 9 10 15", "mean fluorescence intensity [a.u.]": 87.4}
{"Modification": "2'F-ANA at 1 6 7 8 9 11 13 14", "mean fluorescence intensity [a.u.]": 55.7}
{"Modification": "2'F-ANA at 1 3 5 6 7 8 9 10 13", "mean fluorescence intensity [a.u.]": 54.7}
{"Modification": "2'F-ANA at 1 2 3 5 6 8 10 11 12 13", "mean fluorescence intensity [a.u.]": 84.3}
{"Modification": "2'F-ANA at 1 2 3 7 8 11 12 15", "mean fluorescence intensity [a.u.]": 476}
{"Modification": "2'F-ANA at 4 7 9 10 13", "mean fluorescence intensity [a.u.]": 75.5}
{"Modification": "2'F-ANA at 1 2 5 6 10 13", "mean fluorescence intensity [a.u.]": 50.5}
{"Modification": "2'F-ANA at 1 6 8 9 10 11 12", "mean fluorescence intensity [a.u.]": 61.3}
{"Modification": "2'F-ANA at 3 4 5 6 7 8 9 12 13 14", "mean fluorescence intensity [a.u.]": 62.7}
{"Modification": "2'F-ANA at 2 3 6 7 8 9 10 11 15", "mean fluorescence intensity [a.u.]": 303}
{"note": "For quick reference, copied from above (study 4):"}
{"Strand": "GCCGACAC", "E-score": -0.295}
{"Strand": "AATATCCA", "E-score": 0.301}
{"Strand": "CCATGTGC", "E-score": -0.141}
{"Strand": "AACAATCG", "E-score": 0.0529}
{"Strand": "ATCTCGCC", "E-score": -0.298}
{"Strand": "ACTGCATC", "E-score": 0.032}
{"Strand": "ATCCGGAG", "E-score": -0.0667}
{"Strand": "TTCATCAA", "E-score": 0.248}
{"Strand": "TAAACGTA", "E-score": 0.273}
